Assay results of several laboratories.
Every numbered part comes from another study and shows a few of its results, in no order. Substitutions count along the parent as printed.

Set 1 — technique: RNA Bind-n-Seq; molecule type: RNA; sample: in vitro; tested at: 365 nM; baseline: no-protein control; direction: higher = stronger binding
Target: RNA binding protein fox-1 homolog 2, RRM domain, GST-SBP tag (RBFOX2, Homo sapiens, UniProt O43251-10, residues 100-194)
Notes: natural RNA segment, single round, ends assumed
Shared flanks, not repeated: GGGAGUUCUACAGUCCGACGAUC … UGGAAUUCUCGGGUGCCAA
Target sequence (chain): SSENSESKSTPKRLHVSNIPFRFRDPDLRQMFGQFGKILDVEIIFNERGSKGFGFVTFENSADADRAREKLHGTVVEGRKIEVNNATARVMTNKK
| Sequence | RBNS enrichment (R) |
| --- | --- |
| ACAGUGCCGCGUGCGAGAUGAGCUCGAACACUGCCCGCCUUACUGCCGCCUACCCCGCCCGCCACGCCGCCGUCGAUGCCAGCGCUGUCCCCACGGGUACCAGGAAGUGC | 0.389 |
| UGUCAGCUUUGGAUUGCUGGGGCCAGGCCCCAUGGAGGGUAUACUGAGGGGUCUAUAGGUUUGUGAUUAAAAUAAUAAAAGCUAGGCGUGUUUGAUGCGCUUUUAACUUU | 0.981 |
| UCGUCGGUCUACCCCACUACCUCCAGGGUUUUGCUUUGUCCUUUUGUGACCGUUAGUCUCUAAGCUUUACCAGGAGCAGCCUGGGUUCAGCCAGUCAGUGACUGGUGGGU | 0.2 |
| CACAAACUCAGUCCUUAAAACCCCAGGAGUUGAGGGGAAGUGUUGGCACAGUGAUGGCCUGUGUCACCGUGUAGUGUCAUAGGCCAUCACUGUGCCAGAGCAAGCACGCU | 0.3 |
| CUUGAUCUGUGAGUCACUCUCCAGUUUGGGACAUGGGUCUGUCUGUGGCUUUGAGAAAAGGUACUUUCAAAAGAGGGCUUUCCAGAGCACAGCUCACAGCCAGCUGUUAG | 0.201 |
| AAAUAUUGUGAGUGUAUGAAAUGUGAAAUUAAAGCAAAAACUGGAGACUUUUAAUGUAUUUCUUUAAUUUGAAAUGUUUUGUGGAUUGUGAAAUAAAAAUAAAUUUAUGU | 1.17 |
| GUGAUUAACCCUGGCUGUUGAAUCACUCCACUGACCAGUCUCCAGCUUGAGUCGGGGACAUGUUAACUUCGGAAAGAAGCCCCCGUCCCUGCCAUCCCAUAGAUUCUGAA | 0.592 |
| GCUGUGACAAUGCACCAUAUUGAAGGGGUUAUCCUGUUAAUGCUCAUUUUUUCCUCUAAUUCAUAACUUACUGAAUUUUUAUGGAAAAUGUCAGCAUCUGUUCUAUCAGU | 0.321 |
| UCAAGUCCUGCAGUUGCUGGAGCGCUUACGCACCUGAGCCCUUUGUGUCCUGGGGGAGAGAUGGCCACCUCCGUGGGCUGCGAAGAGCCACCCCUUCCUCUUCCGAUUCU | 0.478 |
| GCCUCGCUGGUCUUUCACGUCCUCCUGAUUGACGUGCACAACCCGAAGGACGCUGUCCAGCUAGAGACGCUGGAGCUCCCCCCCGGCUGUGUCCGCAGAGCCGGGGCCGG | 0.179 |
| CCAUCCCAACCCAGGGAGGCCUGUGUCACUCUGGCACAAGCUGCCACCACCAGCCACCCACACCCACCCCAGCACACCUCACACGGGACCACAGCCGCGCUGCCGAGGGC | 1.36 |
| GAGAUUCAAGUCCCACCCGGCUCUUUUGGAUGAACCGCUGAGAGCCUCAGGACUGUUUUUGGGGGGCUGACUUGUCUUUCUACGUACGUACUUCCAGGCUGCAAGGUUUU | 0.879 |

Set 2 — technique: aptamer microarray, sandwich; molecule type: DNA with 2'F-ANA; sample: in vitro; tested at: 200 nM; with: Cy3 exosite-II aptamer, 400 nM; direction: higher = stronger binding; sequence: GGTTGGTGTGGTTGG
Target: Prothrombin, mature alpha-thrombin (F2, Homo sapiens, UniProt P00734)
Notes: whole 15-mer aptamer, many near background
| Modification | mean fluorescence intensity |
| --- | --- |
| 2'F-ANA at 1 4 7 12 14 15 | 63.7 a.u. |
| 2'F-ANA at 3 4 5 6 7 9 10 11 13 14 15 | 59.4 a.u. |
| 2'F-ANA at 5 6 7 9 10 11 12 | 56.1 a.u. |
| 2'F-ANA at 2 3 4 6 11 12 14 15 | 303 a.u. |
| 2'F-ANA at 3 4 7 9 11 13 15 | 545 a.u. |
| 2'F-ANA at 1 2 3 4 8 10 11 13 14 15 | 53.6 a.u. |
| 2'F-ANA at 1 3 4 6 7 8 9 10 13 14 | 51.3 a.u. |
| 2'F-ANA at 1 2 5 6 7 9 10 11 13 15 | 51.8 a.u. |
| 2'F-ANA at 2 3 9 11 15 | 709 a.u. |
| 2'F-ANA at 1 3 4 8 10 11 | 64.3 a.u. |
| 2'F-ANA at 3 9 13 14 15 | 533 a.u. |
| 2'F-ANA at 2 5 6 7 8 9 10 11 12 13 14 | 47.7 a.u. |
| 2'F-ANA at 2 4 7 13 15 | 234 a.u. |
| 2'F-ANA at 3 4 5 6 7 9 13 14 15 | 54.9 a.u. |
| 2'F-ANA at 1 5 7 8 9 10 12 14 15 | 48.6 a.u. |
| 2'F-ANA at 1 5 7 8 15 | 65.3 a.u. |
| 2'F-ANA at 1 3 7 10 11 13 14 15 | 57.6 a.u. |
| 2'F-ANA at 4 5 6 7 13 14 15 | 43.4 a.u. |
| 2'F-ANA at 1 2 3 5 7 9 10 11 12 14 15 | 136 a.u. |

Set 3 — technique: universal PBM; molecule type: double-stranded DNA, one strand shown; sample: in vitro; tested at: not given; direction: higher = stronger binding
Target: Sal-like protein 4, full length isoform B (SALL4, Homo sapiens, UniProt Q9UJQ4-2, residues 1-616)
Notes: 8-mer, flanks averaged, mean of replicates
| Sequence | E-score |
| --- | --- |
| TCAGCTGA | 0.0579 |
| AGGCTAAT | 0.106 |
| ACCGACAT | -0.0232 |
| TACGGACA | 0.0769 |
| CACAAAGC | -0.07 |
| GCTGCAGC | -0.251 |
| CATACCTC | 0.114 |
| ATCTTATA | 0.252 |
| ACGGACGG | -0.294 |
| ATAATTCA | 0.394 |
| ATGACACC | 0.0154 |
| AAATCCGT | 0.0505 |
| CATCGTCG | -0.201 |
| AGACCTGC | -0.0846 |
| CGCGCACG | -0.282 |
| CTACCGAG | -0.197 |
| CTAGAACA | 0.0669 |

Set 4 — technique: RNA Bind-n-Seq; molecule type: RNA; sample: in vitro; tested at: 200 nM; notes: whole 134-nt RNA, ends assumed; with: 150 mM LiCl; baseline: input library; direction: higher = stronger binding; all molecules: 7-deaza-guanosine replaces G
Target: Fragile X messenger ribonucleoprotein 1, C-terminal low-complexity region (Fmr1, Mus musculus, UniProt P35922)
Shared flanks, not repeated: GGGAGUUCUACAGUCCGACGAUC … UGGAAUUCUCGGGUGUCAAGG
| Sequence | log2 enrichment |
| --- | --- |
| UCAAGUCCUGUGCUACACAUCGUAUGUACCGAAUCGGUUUUUGGUGGAAAAAGGAAAGUAUUAUGUUACGCCGUUCGGAUCUGCACUUCC | -0.933 |
| GUCCUGUGCUACACAUCGUAUGUACCGAAUCGGUUUUUGGUUUUUUUGGUUUUUUUGGAAAGUAUUAUGUUACGCCGUUCGGAUCUGCAC | -1.6 |
| AGUCCUGUGCUACACAUCGUAUGUACCGAAUCGGGGCCCCGGGGCCCCGGGGCCCCGGAAAGUAUUAUGUUACGCCGUUCGGAUCUGCAC | 0.455 |
| UGGCCCUGGUGGCGUGCGGGGAGGAAGAGGUGGCCUCAUGGAUCGUGGUGGUCCCGGUGGAAUGUUCAGAGGUGGCCGUGGUGGAGACAG | 0.749 |
| AAGUCCUGUGCUACACAUCGUAUGUACCGAAUCGGGAAAGGGUUUUUUUGGGUGGGAAAGUAUUAUGUUACGCCGUUCGGAUCUGCACUU | -1.82 |
| AGUCCUGUGCUACACAUCGUAUGUACCGAAUCGGGAAAAGGGAAAAGGGGAAAAGGGAAAGUAUUAUGUUACGCCGUUCGGAUCUGCACU | -0.764 |
| ACCAUGCAGGUGGGCAUCUUUGGGAAGUGGGGCAAGGGGGGGCUAGGGAGGGGGGUAACACUUUGGGAACAGGUGGUCCCAGGUCGUUUC | 0.927 |
| UAACUUUAGAGGAGGAUCUGAUGGAUAUGGCAGUGGACGUGGAUUUGGGGAUGGCUAUAAUGGGUAUGGAGGAGGACCUGGUGGUGGCAA | 0.118 |
| UAACUUUAGAGGAGCAUCUGAUGGAUAUGGCAGUGGACGUGGAUUUGGGGAUGGCUAUAAUGGGUAUGGAGGAGGACCUGGAGGUGGCAA | 0.251 |
| UCUUCCGUGACAUUUCAUUUGGGGAACAACUUUUCUCUUUACAGGCCCGAGUGACUAAGGGAUGUACCAUUGUUAAGCCUUUCAACCUGU | 1.24 |
| UGGGAGGUGGAUUUUGUUUAUUUUUUUAGCUCAUUUCCAGGGGUGGGAAUUUUUUUUUAAUAUGUGUCAUGAAUUAAGUUGUUUUUGAAA | 0.324 |

Set 5 — technique: protein binding microarray; molecule type: double-stranded DNA, one strand shown; sample: in vitro; tested at: not given; baseline: not given; direction: higher = stronger binding
Target: Histone acetyltransferase KAT6A, winged helix 2, GST fusion (KAT6A, Homo sapiens, UniProt Q92794, residues 85-181)
Notes: 8-mer, flanks averaged, mean of 2 arrays, mostly near background
Construct (chain): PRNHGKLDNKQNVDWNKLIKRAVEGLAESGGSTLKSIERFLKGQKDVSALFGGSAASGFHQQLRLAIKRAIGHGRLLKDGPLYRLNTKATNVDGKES
| Sequence | E-score |
| --- | --- |
| CTCGACTA | -0.0266 |
| TGAAATAA | -0.0547 |
| CAGACGGG | 0.0936 |
| TCTTCCAA | 0.0794 |
| CTGCATGC | 0.14 |
| CTAATTTA | 0.0589 |
| AGCCTGCG | 0.0688 |
| AAGGGCAT | -0.0207 |
| CTGACGCC | -0.128 |
| CGGCTCGA | 0.214 |
| GACGAACA | 0.0245 |
| ATCCTGCC | -0.0468 |
| AGAAGTCT | -0.222 |
| ACAATCGC | 0.116 |
| GCAGATGA | -0.021 |
| AGGACTCA | -0.223 |
| CGTAGAAA | -0.023 |
| ATCCTGGC | -0.0118 |
| CGCCAGTC | 0.0713 |
| AAACTCAC | 0.0394 |
| GTCCGACA | 0.036 |

Set 6 — technique: DHFR PCA, deep sequencing; sample: yeast; with: (+)-ABA 0.11 µM; baseline: wild-type fitted maximum; direction: higher = stronger binding
Target: ABI1, truncated, D143A, DHFR fusion (Arabidopsis thaliana)
Notes: methotrexate growth selection, single substitutions
Starting sequence: PYL1, truncated, DHFR fusion (Arabidopsis thaliana); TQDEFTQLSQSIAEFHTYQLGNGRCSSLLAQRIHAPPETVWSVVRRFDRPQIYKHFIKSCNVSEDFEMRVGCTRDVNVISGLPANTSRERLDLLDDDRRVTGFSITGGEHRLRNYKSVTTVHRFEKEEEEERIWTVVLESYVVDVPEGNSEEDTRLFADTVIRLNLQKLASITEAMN
| Variant | relative binding score [%] |
| --- | --- |
| R88T | 48.3 |
| V100G | -2.95 |
| D144G | 3.49 |
| G102C | -5.02 |
| N77Q | 65.1 |
| D97L | 5.61 |
| I57S | 4.32 |
| L94Y | -1.45 |
| A170P | -0.0927 |
| D75I | 42.6 |
| N22G | 26.5 |
| G23T | 1.49 |
| R132I | 16 |
| E151P | 43.1 |
| V62T | 14.5 |
| R88L | 14.2 |
| H16A | -6.1 |
| E14C | 0.0368 |
| R90I | -2.39 |
| M68P | 8.01 |
| F5K | 4.99 |
| I79M | 10.5 |
| L112C | -6.89 |
| F15C | 0.0313 |
| P50D | -6.16 |

Excerpt of the above (set 3):
| Sequence | E-score |
| --- | --- |
| AGGCTAAT | 0.106 |
| CACAAAGC | -0.07 |
| CTAGAACA | 0.0669 |
| ATCTTATA | 0.252 |
| TACGGACA | 0.0769 |
| CATCGTCG | -0.201 |
| TCAGCTGA | 0.0579 |
